Measurements gathered from unrelated publications.
Each numbered part is a random draw from the data of one study; scales do not carry over between parts. Positions count from the first letter of the parent shown.

Sample 1 — target: CCNF, cyclin fold, Cln2 fusion (human); technique: yeast growth competition, sequencing; medium: yeast; setting: weak parent motif; relative to: not given; direction: higher = stronger binding
Parent: WEE2 docking peptide (human); KELRQKLNFSYCE
`C12A`: “normalised enrichment score” 0.307.
`R4A`: “normalised enrichment score” 0.431.
`L7A` — result for “normalised enrichment score”: 0.319.
`Y11A` — result for “normalised enrichment score”: 1.15.
`L3A` — result for “normalised enrichment score”: 1.64.
`K6A` — result for “normalised enrichment score”: 0.286.

Sample 2 — technique: RNA Bind-n-Seq; form: RNA; medium: in vitro; tested at: 200 nM; setting: whole 134-nt RNA, ends assumed; added: 150 mM KCl; relative to: input library; direction: higher = stronger binding
Target: Fragile X messenger ribonucleoprotein 1, C-terminal low-complexity region (Fmr1, Mus musculus, UniProt P35922)
The log2 enrichment of `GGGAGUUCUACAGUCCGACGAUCUGGGAGGUGGAUUUUGUUUAUUUUUUUAGCUCAUUUCCAGGGGUGGGAAUUUUUUUUUAAUAUGUGUGAUGAAUAAAGUUGUUUUUGAAAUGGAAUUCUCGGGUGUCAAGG` is reported as 0.251.
`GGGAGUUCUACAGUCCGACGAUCCACAGACAACACGCACCCACACAGACACAGAGGGAAGGGGUUGGGAUGGGGACAGGGUGCACAGCAGGGCGGGGUAGGACCCAAGCCCCUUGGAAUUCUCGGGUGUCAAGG` has a log2 enrichment of 1.33.
With `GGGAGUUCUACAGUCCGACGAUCUCAAGUCCUGUGCUACACAUCGUAUGUACCGAAUCGGGGUUGGGUUGGGGUUGGAAAGUAUUAUGUUACGCCGUUCGGAUCUGCACUUCCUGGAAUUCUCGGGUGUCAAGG` the log2 enrichment was 0.408.
With `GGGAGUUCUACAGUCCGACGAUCUCCUCAAGUCCUGUGCUACACAUCGUAUGUACCGAAUCGGAGGUGGUUUGGAAAGUAUUAUGUUACGCCGUUCGGAUCUGCACUUCCAGCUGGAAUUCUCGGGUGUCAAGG` the log2 enrichment was -0.563.
With `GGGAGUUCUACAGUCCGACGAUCCAAGUCCUGUGCUACACAUCGUAUGUACCGAAUCGGCCCGGGCCCGGGGCCCGGGGAAAGUAUUAUGUUACGCCGUUCGGAUCUGCACUUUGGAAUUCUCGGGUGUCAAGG` the log2 enrichment was -0.816.
The log2 enrichment of `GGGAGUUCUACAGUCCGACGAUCUGGCCCUGGUGGCAUGCGGGGAGGAAGAGGUGGCCUCAUGGAUCGUGGUGGUCCCGGUGGAAUGUUCAGAGGUGGCCGUGGUGGACACAGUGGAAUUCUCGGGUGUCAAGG` is reported as -0.194.
For `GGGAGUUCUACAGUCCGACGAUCGCAGGAAGUAAAAACAAAUGGAAAUGCUUCGGAUAGUGGCAGGGGAAAGGGUUGCUAAGGAAAGGGUGGGAUGGGAGUGGGUAAAGAGUUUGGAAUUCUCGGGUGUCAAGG`, the log2 enrichment was 0.339.
The log2 enrichment of `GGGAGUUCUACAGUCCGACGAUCCAAGUCCUGUGCUACACAUCGUAUGUACCGAAUCGGGGUUUGGGGUUUGGGUUUGGAAAGUAUUAUGUUACGCCGUUCGGAUCUGCACUUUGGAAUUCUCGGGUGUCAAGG` is reported as 0.00663.
For `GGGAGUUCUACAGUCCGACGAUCACCAUGCAGGUGGGCAUCUUUGGGAAGUGGGGCAAGGGGGGGAUAAGGAGGGGGGUAACACUUUGGGAACAGGUGGUCCCAGGUCGUUUCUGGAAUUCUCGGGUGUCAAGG`, the log2 enrichment was 0.337.
For `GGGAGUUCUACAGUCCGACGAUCAAGUCCUGUGCUACACAUCGUAUGUACCGAAUCGGGUUUGGGAAAAAAAGGGAGGGAAAGUAUUAUGUUACGCCGUUCGGAUCUGCACUUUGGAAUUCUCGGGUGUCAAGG`, the log2 enrichment was 0.865.
`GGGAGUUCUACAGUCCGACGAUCAAGUCCUGUGCUACACAUCGUAUGUACCGAAUCGGGGUUUUGGUUUUGGUUUUGGGAAAGUAUUAUGUUACGCCGUUCGGAUCUGCACUUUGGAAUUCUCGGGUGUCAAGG` gave a log2 enrichment of -0.607.
`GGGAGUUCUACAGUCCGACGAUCCAAGUCCUGUGCUACACAUCGUAUGUACCGAAUCGGUUUUUUUGGUGGUUUUUGGAAAGUAUUAUGUUACGCCGUUCGGAUCUGCACUUCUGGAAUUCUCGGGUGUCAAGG` gave a log2 enrichment of -0.622.
For `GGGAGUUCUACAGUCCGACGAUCUGGCCCUGGUGGCAUGCGGGGAGGAAGAGGUGGCCUCAUGGAUCGUGGAGGUCCCGGUGGAAUGUUCAGAGGUGGCCGUGGUGGAGACAGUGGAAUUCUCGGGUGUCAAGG`, the log2 enrichment was 0.374.
For `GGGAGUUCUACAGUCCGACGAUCUUCAGUUAUUCAAGCGGAGAAAUGUUGCUACAGCAGAAGAAGAAACAGAAGAAGAAGUUAUGUCAGAUGGAGGCUUUCAUGAGGCUCAGAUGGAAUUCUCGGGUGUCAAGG`, the log2 enrichment was -1.81.

Sample 3 — technique: RNA Bind-n-Seq; form: RNA; medium: in vitro; tested at: 365 nM; relative to: no-protein control; direction: higher = stronger binding
Target: RNA binding protein fox-1 homolog 2, RRM domain, GST-SBP tag (RBFOX2, Homo sapiens, UniProt O43251-10, residues 100-194)
Setting: natural RNA segment, single round, ends assumed
Residues (chain): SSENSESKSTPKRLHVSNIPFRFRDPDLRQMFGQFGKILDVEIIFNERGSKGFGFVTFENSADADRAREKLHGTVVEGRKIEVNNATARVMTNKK
Under “RBNS enrichment (R)”, `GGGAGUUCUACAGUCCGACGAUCCGACAGGCUAGGGUUAGGCAAUGUACCACAGGCCUGAUAGUCCCUGGCUCCUAGCUGCCCAUAGGCUCCUAGUGCAUGAGGAAUUCUGAGGAGAGGACAAGUGGGGACAUUGGAAUUCUCGGGUGCCAA` is recorded as 17.1.
`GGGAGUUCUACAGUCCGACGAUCUCAGAGGUACUAUGGGGGAGCAGAGGUGGUGGAUGAAUUGAGCUGCUGUGCCAGCGCCGGGCCUUGGAAGCCUUUGACCUGGAUCCUGCACAGUGGGGAGUCAAUGUCCAUGGAAUUCUCGGGUGCCAA`: “RBNS enrichment (R)” 0.554.
For `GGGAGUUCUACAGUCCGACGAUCUCCCUGCGGCCUCCACACCUGAACUUGCCUAACUAACUGGCAGGGGAGACAGGAGCCUAGCGGAGCCCAGCCUGGGAGCCCAGAGGGUGGCAAGAACAGUGGGCGUUGGGUGGAAUUCUCGGGUGCCAA`, “RBNS enrichment (R)” read 0.431.
`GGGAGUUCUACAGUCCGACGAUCUCUCUUUUUCAAGUUGUCCUUUCUUCACCCUUUACUGAUUUAAUACAGAAUAACAAUCUUAUUUUCUAUUUGAUAACUAUGGUAUCAUAUUGGGUUACUGUAUAAGGAAAUGGAAUUCUCGGGUGCCAA`: “RBNS enrichment (R)” 0.611.
`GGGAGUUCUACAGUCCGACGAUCCAAGCGUAGACGCCCUUCAGCUGUAGCACAUCUUCAUUUUAUAGUAUCUAUUCAGUUUGUUCUUACUAACUUCUGGUCUUUUAAAAGACGUCAACGGAGGAACCUCGGUUUGGAAUUCUCGGGUGCCAA`: “RBNS enrichment (R)” 0.895.
`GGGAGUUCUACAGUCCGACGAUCUACACUAAUCUGCCUAAAGGUGGUUGUUUCAUAUUUAUAAUGCUAAUUAUCAUACCUACCUACUUUAAAUUUUAGGUAGAAAAUUAUCUGAUUUAAAUACAAACAUAUUUUGGAAUUCUCGGGUGCCAA` — result for “RBNS enrichment (R)”: 0.431.
Under “RBNS enrichment (R)”, `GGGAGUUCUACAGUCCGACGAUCUAAUGUUUUUACAGCAACAAUAUGAAAUAUAUUUUAUAAGGAAUAAAAUGGUACCUUGUCUGAUUUAUGUGUGCCUGUCCUUUGCCCCUUCCCUUGCAACAAAUAAGAUUUGGAAUUCUCGGGUGCCAA` is recorded as 2.31.
`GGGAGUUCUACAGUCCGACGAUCUAGAUGAUAUAACAAAGAAAGCAUGCUUUCUGAGGAGAUAGUGGGGAUAAUCCCUGAAGAGUUGGCAGUGUGAGUGCAACUCAUUUAUCUUCUGUGAGGUGGGAUUUUUGUGGAAUUCUCGGGUGCCAA`: “RBNS enrichment (R)” 5.07.
`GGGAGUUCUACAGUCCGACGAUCCUCUGGGAUGCUCUUCAUUAUCUCAAUGCCUGUGCCAUGAAGAUAGAAAACUGUAAGCUAACAUUUAAGAUGUUUCUUCUGGAAGGAAAGUGAGCAGGAACAAGUUAUAUUGGAAUUCUCGGGUGCCAA` — result for “RBNS enrichment (R)”: 0.748.
`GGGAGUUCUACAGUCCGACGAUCCAAGAAAAGGUUUUAAGCCUACUGGAUGGAGUCUAAAAUUCUUAGAAAUCAACUUUAGAGCUUUGCUUUUCUCUGAGUUCAUCCUGCAGUGAAUGACAGGUACUGACAGCUGGAAUUCUCGGGUGCCAA`: “RBNS enrichment (R)” 0.394.
Under “RBNS enrichment (R)”, `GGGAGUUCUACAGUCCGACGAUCGUAUUUGAGAUGGGGCCUUUGGUAAGGGAAGUUUAGAUGAGGUCACGAGGGUAGGACCCUCAUGAUGGGAUGAGUCCCCUUACAAGACCUCUGGCUUGGGCCGGGCGUGGUGGAAUUCUCGGGUGCCAA` is recorded as 1.58.
`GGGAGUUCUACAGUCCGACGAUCUCAUGCUGUUUUUUUUCUCUGCAACUCGUUAGCAGAGGAAAACAGCAUGUGGGUAUUUGUCGACCAAAAUGAUGCCAAUUUGUAAAUUAAAAUGUCACCUAGUGGCCCUUUGGAAUUCUCGGGUGCCAA`: “RBNS enrichment (R)” 0.311.

Sample 4 — target: MAFG, bZIP domain (human); technique: DHFR protein complementation; medium: yeast; relative to: wild-type JUN-FOS pair; direction: higher = stronger binding
Setting: single substitutions, most at no-binding floor
Parent: JUN, bZIP domain (human); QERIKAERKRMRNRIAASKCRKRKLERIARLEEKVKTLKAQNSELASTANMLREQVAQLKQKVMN; partner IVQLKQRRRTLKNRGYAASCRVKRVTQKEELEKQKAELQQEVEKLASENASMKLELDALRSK
`V35T` has a binding fitness of -1.15 natural log.
`L45K` has a binding fitness of -1.47 natural log.
With `V35Y` the binding fitness was -1.46 natural log.
With `E32G` the binding fitness was -1.45 natural log.
For `Q55H`, the binding fitness was -1.52 natural log.
The binding fitness of `K36G` is reported as -1.48 natural log.
`K39G` gave a binding fitness of -1.45 natural log.
With `R30F` the binding fitness was -1.37 natural log.
With `T37F` the binding fitness was -1.58 natural log.
The binding fitness of `Q58P` is reported as -1.54 natural log.
`E33A` gave a binding fitness of -1.49 natural log.
`A29D` gave a binding fitness of -1.57 natural log.
For `E33M`, the binding fitness was -1.35 natural log.
For `S43L`, the binding fitness was -1.47 natural log.
`Q41C` has a binding fitness of -1.43 natural log.
For `Q41H`, the binding fitness was -1.44 natural log.
For `K34L`, the binding fitness was -1.5 natural log.
With `E54D` the binding fitness was -1.55 natural log.
For `E44R`, the binding fitness was -1.44 natural log.
`E32D` has a binding fitness of -1.48 natural log.

Sample 5 — technique: universal PBM; form: double-stranded DNA, one strand shown; medium: in vitro; tested at: not given; direction: higher = stronger binding
Target: Sal-like protein 4, full length isoform B (SALL4, Homo sapiens, UniProt Q9UJQ4-2, residues 1-616)
Setting: 8-mer, flanks averaged, mean of replicates
`AGGCCGTA` gave an E-score of -0.0616.
With `CACGCAAG` the E-score was 0.00827.
The E-score of `ACAAGCGT` is reported as -0.0268.
`ATTTAATC` has an E-score of 0.301.
With `TATGGTCA` the E-score was 0.191.
`ACACCCCT` has an E-score of -0.0402.
With `AAGGTTTA` the E-score was 0.114.
`ATATACCG` gave an E-score of 0.163.
`CGCTCTCC` has an E-score of -0.259.
With `ATGCGGAC` the E-score was -0.188.
`TGTGAGAA` gave an E-score of 0.12.
With `CAAATTCG` the E-score was 0.00916.
`ATAGTTAG` gave an E-score of 0.0965.
`AACAGTTA` has an E-score of 0.0829.
For `ACTTGTTA`, the E-score was 0.123.
`TCAATTAA` gave an E-score of 0.182.
For `CCCTACCC`, the E-score was -0.134.
`AATGTACT` has an E-score of 0.171.
`CGAGGAAC` gave an E-score of -0.122.
The E-score of `GTCTGAAC` is reported as -0.0659.
`AACTTTAC` gave an E-score of 0.073.
The E-score of `GGTTGGAC` is reported as -0.11.
For `TGTGCGAA`, the E-score was -0.0464.
`AACCGCCA` gave an E-score of -0.204.
`ACGCTCGC` gave an E-score of -0.259.

Other studies, line by line
For `PhoQ, residues 284 288 289 292 302 303 SCKMEA`, the fold induction was 17.4 (PhoP, residues 12 14 15 18 19 HEGLL (Escherichia coli, UniProt P23836); Sort-seq, refers to: YFP reporter; E. coli; PhoQ-PhoP variant library, added: 10 µM Mg2+; relative to: high Mg2+ state, higher = stronger signaling).

Some of these lines once more (sample 5):
For `CCCTACCC`, the E-score was -0.134.
With `ATGCGGAC` the E-score was -0.188.
`TCAATTAA` gave an E-score of 0.182.
`ACACCCCT` has an E-score of -0.0402.
`AGGCCGTA` gave an E-score of -0.0616.
With `TATGGTCA` the E-score was 0.191.
